Measured values gathered from unrelated publications.
Every numbered part comes from another study and shows a few of its results, in no order.

Block 1
Target: Protein C-ets-1, full length (ETS1, Homo sapiens, UniProt P14921, residues 1-441)
UniProt P14921, sequence (whole entry, looked up): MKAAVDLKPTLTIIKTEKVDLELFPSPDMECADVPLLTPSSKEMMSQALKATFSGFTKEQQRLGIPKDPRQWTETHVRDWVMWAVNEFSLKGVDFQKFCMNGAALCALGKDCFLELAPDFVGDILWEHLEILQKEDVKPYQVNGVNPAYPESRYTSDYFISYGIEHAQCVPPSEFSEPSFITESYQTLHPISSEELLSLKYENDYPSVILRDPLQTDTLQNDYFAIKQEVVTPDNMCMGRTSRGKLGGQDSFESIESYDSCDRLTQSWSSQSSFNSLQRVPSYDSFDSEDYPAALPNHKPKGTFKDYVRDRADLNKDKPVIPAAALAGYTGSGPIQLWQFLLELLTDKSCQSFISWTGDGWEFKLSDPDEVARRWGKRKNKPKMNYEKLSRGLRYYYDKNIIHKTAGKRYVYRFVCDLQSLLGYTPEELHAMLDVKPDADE
Technique: protein-binding microarray
Molecule type: hairpin DNA
Matrix: in vitro
Tested at: not given
Notes: whole hairpin DNA, median over replicate spots
Relative to: not given
Reading: higher = stronger binding
| Oligonucleotide | median fluorescence |
| --- | --- |
| GAGGCCAGCGGGAAGTTGCCTCCTGGCAACTTCCCGCTGGCCTCACACTC (5mC at 35) | 2520 a.u. |
| GAGGCCAGCCGGAAGTTGCCTCCTGGCAACTTCCGGCTGGCCTCACACTC (5mC at 30) | 10500 a.u. |
| GAGGCCAGTCGGACGTTGCCTCCTGGCAACGTCCGACTGGCCTCACACTC (5mC at 30) | 767 a.u. |
| GAGGCCACTCGGAAGTTGCCTCCTGGCAACTTCCGAGTGGCCTCACACTC (5mC at 8) | 2210 a.u. |
| GAGGCCGGCCGGAAGTTGCCTCCTGGCAACTTCCGGCCGGCCTCACACTC | 9300 a.u. |
| GAGGCCCGTCGGAAGTTGCCTCCTGGCAACTTCCGACGGGCCTCACACTC (5mC at 37) | 2420 a.u. |
| GAGGCCAGCCGGAAGCGGCCTCCTGGCCGCTTCCGGCTGGCCTCACACTC | 7640 a.u. |
| GAGGCCAGCCGGCGGTTGCCTCCTGGCAACCGCCGGCTGGCCTCACACTC (5mC at 31) | 602 a.u. |
| GAGGCCAGTCGGAATTTGCCTCCTGGCAAATTCCGACTGGCCTCACACTC | 621 a.u. |

Block 2
Target: RNA binding protein fox-1 homolog 2, RRM domain, GST-SBP tag (RBFOX2, Homo sapiens, UniProt O43251-10, residues 100-194)
Technique: RNA Bind-n-Seq
Molecule type: RNA
Matrix: in vitro
Tested at: 365 nM
Notes: natural RNA segment, single round, ends assumed
Relative to: no-protein control
Reading: higher = stronger binding
All sequences stand within: GGGAGUUCUACAGUCCGACGAUC … UGGAAUUCUCGGGUGCCAA
Construct (chain): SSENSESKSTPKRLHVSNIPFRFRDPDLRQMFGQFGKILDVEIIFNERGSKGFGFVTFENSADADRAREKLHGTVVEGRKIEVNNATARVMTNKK
| Oligonucleotide | RBNS enrichment (R) |
| --- | --- |
| CUUUUGCUUAUUAUAGGGUGCUCUGAGGGUCUUCUCUGUGUCCUCUGACCCAAGACAAAAUGCACAAGUCAGGAAGCACUUCCUUGUGCCCGAGCUGUGGGCCACCCUGG | 0.261 |
| UAGUAGCAGACAGAUGGAAACAUUGUCUCAUUUUGUCAAGGAGUCCAAAGAAAUGAUUAUAAAACCAGGAUUCAUCCUUCUUCUCCAGAAAGAUUUUUUUUUAAGUAAAC | 0.626 |
| UUUAAAUAAAAUAAUAAGAUAAAAGGUGACAACCGCAGUUGACACCUAGCAUGUUUUGUGGACGCAGUCAAGCUGCCACAGUCUGGUCAUCGUUGUUGUUGUGCUGACGU | 3.12 |
| UGUACUAUAGGAGUGAUAAUUGCAGCUAUUGCAAUAGUAGUAAUUGUUAAAUGGAUACUAAUGAAUAGCAUAGCAUAGUGGGUAAGAGUUUAUAUAGCACAGGCUCUAGA | 0.817 |
| GCUGUUUCUAAGUGCUGAGAGUUUUGCUUGAAGAGGGAGCGAGCCAUCAAGUUCCCAGCUUUUCAGGAAUGAAAGAAGUUCAGCAGUCAGAUAAUCCUUGUGUCUUGGGU | 0.696 |
| ACCCAGCAAGUGAAUCCAAUCUUCAGCAAUUCCCAUAGACCCAAGAAGCCUACUUUCCUGAGGCAGCAGCACUGCCACUGGAGCCUCCCGACAGGGCGUGCCUCUCCCAC | 0.335 |
| CCUUCCAGAGAAAGGAUUCCUUCCCAGCCUCCAGGCUGGUGUCUCAUGAGGUGAGGAGGCUGGCCCAGAAGGAAGGGGACGUUAGGUGGUGAAGCAGGCUCCCCUGGGCC | 0.293 |
| ACACACACACACACGGUUUGAUGAAUUUCCAAACCACGGCUACUCCUUUUUUAAAAACGGGUUUGAACUCCUGUUUAGCCAAGAGUGAUCUUGAGCUGGUCUCCUGCCUC | 0.897 |
| UAAAUGGAAUGUUUCUGCCUCAGUUCUUUUGACUACCUCCUAGGACAUGGAAACAAAUAUUUGGGAGCCUGCAUAGUCUUUAGAUGGCUGCCAAAGCACUUAAAAUCUCC | 0.722 |
| CAGGAGCUCUCUGGAGCCCAUCUAGGAAGCUAGAGUGUGUGGCCCGCCAGGAGCUCAGGAAGGAUACAGCCACUGUCGCAGGGGAAAGUGUUUGCUUCCCGUGGAGCCAA | 0.443 |
| GUGGCUGCGCCGCCAGGCCCCAACAAUGGGGACCCUGGGGUGGCUCCUGGCCAAGUGUUCUCUGUUUUCCUCGCACCUCCUUACACUGUGUGACCUGCAGGGCAUGAGGU | 0.371 |
| AGAAACGACCCUGGCCAAUGUCAACGCAGAGCCGAGGCGGUGUUGUCACGGCUAAUGUGAAAUCUCUUCCCGUGGCGCCCAUCCUCUGACUCUGCAGUGCCAGCUUGGAC | 0.324 |

Block 3
Target: Prothrombin, mature alpha-thrombin (F2, Homo sapiens, UniProt P00734)
Technique: aptamer microarray, sandwich
Molecule type: DNA with 2'F-ANA
Matrix: in vitro
Tested at: 200 nM
Notes: whole 15-mer aptamer, many near background
With: Cy3 exosite-II aptamer, 400 nM
Reading: higher = stronger binding
Oligonucleotide: GGTTGGTGTGGTTGG
| Modification | mean fluorescence intensity [a.u.] |
| --- | --- |
| 2'F-ANA at 2 3 6 7 9 11 14 15 | 378 |
| 2'F-ANA at 2 4 7 8 11 13 | 279 |
| 2'F-ANA at 1 2 4 6 10 15 | 54.3 |
| 2'F-ANA at 1 3 6 9 11 13 14 | 70.6 |
| 2'F-ANA at 1 3 4 6 7 8 10 13 15 | 57 |
| 2'F-ANA at 1 2 3 8 9 10 11 13 | 82 |
| 2'F-ANA at 2 5 6 7 9 11 | 145 |
| 2'F-ANA at 2 3 4 5 7 12 13 14 | 52 |
| 2'F-ANA at 1 6 8 10 11 13 | 90.2 |
| 2'F-ANA at 1 4 6 9 12 | 265 |
| 2'F-ANA at 1 2 3 11 12 14 15 | 132 |
| 2'F-ANA at 5 7 11 12 | 144 |
| 2'F-ANA at 3 4 5 6 11 12 14 | 52 |
| 2'F-ANA at 1 3 4 5 6 7 9 10 12 15 | 51.9 |
| 2'F-ANA at 9 12 13 14 | 189 |

Block 4
Target: Histone acetyltransferase KAT6A, winged helix 2, GST fusion (KAT6A, Homo sapiens, UniProt Q92794, residues 85-181)
Technique: protein binding microarray
Molecule type: double-stranded DNA, one strand shown
Matrix: in vitro
Tested at: not given
Notes: 8-mer, flanks averaged, mean of 2 arrays, mostly near background
Relative to: not given
Reading: higher = stronger binding
Residues (chain): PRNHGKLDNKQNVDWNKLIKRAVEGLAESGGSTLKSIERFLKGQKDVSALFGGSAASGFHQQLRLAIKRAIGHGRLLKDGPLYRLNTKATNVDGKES
| Oligonucleotide | E-score |
| --- | --- |
| AAACAGTT | 0.0141 |
| AGAGAACT | -0.0906 |
| CTCCAGTA | -0.0159 |
| AACTAATA | 0.08 |
| GAATAACC | -0.18 |
| GCAACCGA | 0.222 |
| AAATGTTA | -0.182 |
| CGTCCTGC | 0.034 |

Excerpt of the above (block 4):
| Oligonucleotide | E-score |
| --- | --- |
| CTCCAGTA | -0.0159 |
| AACTAATA | 0.08 |
| GAATAACC | -0.18 |
| GCAACCGA | 0.222 |
